Results collected from several papers.
Parts stem from different laboratories: compare values within a part only. Values joined by “and” are separate records of one study, mostly repeats; a detail may differ.
UniProt P13945, sequence (whole entry, looked up): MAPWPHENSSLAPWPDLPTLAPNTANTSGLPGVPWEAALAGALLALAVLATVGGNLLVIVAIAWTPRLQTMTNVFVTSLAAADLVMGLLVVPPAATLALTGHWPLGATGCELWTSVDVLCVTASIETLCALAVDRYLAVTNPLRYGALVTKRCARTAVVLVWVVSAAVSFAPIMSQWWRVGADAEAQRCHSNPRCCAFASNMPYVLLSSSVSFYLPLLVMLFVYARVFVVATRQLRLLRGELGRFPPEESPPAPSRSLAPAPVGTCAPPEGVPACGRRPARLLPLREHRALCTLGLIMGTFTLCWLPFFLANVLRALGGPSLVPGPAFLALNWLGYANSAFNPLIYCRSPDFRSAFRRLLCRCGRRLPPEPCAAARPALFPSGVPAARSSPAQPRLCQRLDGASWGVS
UniProt P47898, sequence (whole entry, looked up): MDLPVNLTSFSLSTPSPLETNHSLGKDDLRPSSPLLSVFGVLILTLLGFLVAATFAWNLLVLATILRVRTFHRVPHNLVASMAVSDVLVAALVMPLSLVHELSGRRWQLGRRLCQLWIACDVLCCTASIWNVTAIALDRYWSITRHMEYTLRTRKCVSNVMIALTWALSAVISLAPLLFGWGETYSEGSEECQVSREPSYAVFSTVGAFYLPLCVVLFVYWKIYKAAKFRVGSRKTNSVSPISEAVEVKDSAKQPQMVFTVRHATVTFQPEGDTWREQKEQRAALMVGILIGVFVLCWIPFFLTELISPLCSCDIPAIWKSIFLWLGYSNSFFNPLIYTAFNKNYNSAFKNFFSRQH
UniProt P21728, sequence (whole entry, looked up): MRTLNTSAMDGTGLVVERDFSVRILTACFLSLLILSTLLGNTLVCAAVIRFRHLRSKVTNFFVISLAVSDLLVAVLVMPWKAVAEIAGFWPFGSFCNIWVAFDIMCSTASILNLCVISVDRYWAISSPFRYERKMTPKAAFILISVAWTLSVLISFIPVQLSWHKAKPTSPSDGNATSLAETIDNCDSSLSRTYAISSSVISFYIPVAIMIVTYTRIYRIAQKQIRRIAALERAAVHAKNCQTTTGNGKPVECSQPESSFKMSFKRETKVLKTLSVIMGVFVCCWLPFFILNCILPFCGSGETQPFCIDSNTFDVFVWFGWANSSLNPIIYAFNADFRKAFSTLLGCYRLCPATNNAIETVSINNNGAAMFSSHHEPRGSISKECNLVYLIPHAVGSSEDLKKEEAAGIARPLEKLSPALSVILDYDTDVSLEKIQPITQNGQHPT
UniProt P25021, sequence (whole entry, looked up): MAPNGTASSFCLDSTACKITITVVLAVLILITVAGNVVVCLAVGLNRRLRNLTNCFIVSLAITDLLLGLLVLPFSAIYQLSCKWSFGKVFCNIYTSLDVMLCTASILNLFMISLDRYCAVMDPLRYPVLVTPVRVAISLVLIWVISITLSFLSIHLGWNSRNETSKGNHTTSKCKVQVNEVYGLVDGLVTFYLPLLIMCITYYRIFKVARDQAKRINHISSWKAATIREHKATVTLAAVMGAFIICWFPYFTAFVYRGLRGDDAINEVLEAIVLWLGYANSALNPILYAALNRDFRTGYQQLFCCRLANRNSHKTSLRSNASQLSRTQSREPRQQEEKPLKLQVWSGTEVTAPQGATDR
UniProt P35367, sequence (whole entry, looked up): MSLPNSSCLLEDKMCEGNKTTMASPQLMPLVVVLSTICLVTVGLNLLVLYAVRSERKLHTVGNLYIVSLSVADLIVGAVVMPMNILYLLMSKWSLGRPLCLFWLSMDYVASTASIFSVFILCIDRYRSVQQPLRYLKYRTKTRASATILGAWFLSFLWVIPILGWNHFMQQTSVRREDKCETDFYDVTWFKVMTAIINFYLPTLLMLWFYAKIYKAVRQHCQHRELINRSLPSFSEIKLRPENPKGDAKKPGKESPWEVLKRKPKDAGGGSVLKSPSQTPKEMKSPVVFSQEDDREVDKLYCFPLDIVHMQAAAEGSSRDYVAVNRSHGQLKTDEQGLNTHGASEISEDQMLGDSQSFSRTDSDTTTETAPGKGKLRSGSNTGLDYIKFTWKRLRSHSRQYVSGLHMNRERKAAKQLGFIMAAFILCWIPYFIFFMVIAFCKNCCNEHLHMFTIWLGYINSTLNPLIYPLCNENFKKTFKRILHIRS
UniProt P35368, sequence (whole entry, looked up): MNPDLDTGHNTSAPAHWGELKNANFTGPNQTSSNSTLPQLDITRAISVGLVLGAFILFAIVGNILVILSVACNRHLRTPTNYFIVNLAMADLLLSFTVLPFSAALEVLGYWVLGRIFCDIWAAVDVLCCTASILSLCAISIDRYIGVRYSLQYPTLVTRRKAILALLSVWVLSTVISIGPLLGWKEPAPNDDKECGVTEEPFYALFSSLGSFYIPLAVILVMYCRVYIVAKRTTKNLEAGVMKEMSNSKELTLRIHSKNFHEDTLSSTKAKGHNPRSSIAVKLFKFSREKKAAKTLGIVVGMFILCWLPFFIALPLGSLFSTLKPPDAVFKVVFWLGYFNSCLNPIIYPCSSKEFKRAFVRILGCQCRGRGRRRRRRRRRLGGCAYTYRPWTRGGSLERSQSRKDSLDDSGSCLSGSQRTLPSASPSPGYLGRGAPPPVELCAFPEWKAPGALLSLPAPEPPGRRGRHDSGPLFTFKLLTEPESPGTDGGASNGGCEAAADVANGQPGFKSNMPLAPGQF
UniProt Q9H3N8, sequence (whole entry, looked up): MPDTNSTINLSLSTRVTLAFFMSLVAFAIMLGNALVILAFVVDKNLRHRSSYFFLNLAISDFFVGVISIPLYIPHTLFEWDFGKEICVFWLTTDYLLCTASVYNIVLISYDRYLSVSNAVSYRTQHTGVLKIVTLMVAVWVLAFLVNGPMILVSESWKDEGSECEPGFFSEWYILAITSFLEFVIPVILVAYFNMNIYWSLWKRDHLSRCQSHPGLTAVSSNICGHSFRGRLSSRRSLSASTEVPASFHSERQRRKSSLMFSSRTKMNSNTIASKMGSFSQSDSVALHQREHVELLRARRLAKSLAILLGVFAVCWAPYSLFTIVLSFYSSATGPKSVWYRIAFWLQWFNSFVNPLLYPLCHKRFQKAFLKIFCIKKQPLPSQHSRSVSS
UniProt P08172, sequence (whole entry, looked up): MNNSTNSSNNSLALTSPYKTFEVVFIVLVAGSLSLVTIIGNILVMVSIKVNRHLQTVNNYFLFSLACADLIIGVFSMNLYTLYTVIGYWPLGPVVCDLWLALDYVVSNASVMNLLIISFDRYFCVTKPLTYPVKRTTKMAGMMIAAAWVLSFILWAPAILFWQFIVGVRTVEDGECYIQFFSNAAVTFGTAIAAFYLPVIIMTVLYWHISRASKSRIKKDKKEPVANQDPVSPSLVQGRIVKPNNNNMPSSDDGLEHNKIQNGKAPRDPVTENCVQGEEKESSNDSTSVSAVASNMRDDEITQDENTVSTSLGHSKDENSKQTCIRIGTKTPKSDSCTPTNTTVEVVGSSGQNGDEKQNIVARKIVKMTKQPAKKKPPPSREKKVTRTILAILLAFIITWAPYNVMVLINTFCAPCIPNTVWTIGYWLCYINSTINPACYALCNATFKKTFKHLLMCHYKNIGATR

Set 1
Target: Calcium/calmodulin-dependent protein kinase type II subunit alpha (CAMK2A, Homo sapiens, UniProt Q9UQM7)
UniProt Q9UQM7, sequence (whole entry, looked up): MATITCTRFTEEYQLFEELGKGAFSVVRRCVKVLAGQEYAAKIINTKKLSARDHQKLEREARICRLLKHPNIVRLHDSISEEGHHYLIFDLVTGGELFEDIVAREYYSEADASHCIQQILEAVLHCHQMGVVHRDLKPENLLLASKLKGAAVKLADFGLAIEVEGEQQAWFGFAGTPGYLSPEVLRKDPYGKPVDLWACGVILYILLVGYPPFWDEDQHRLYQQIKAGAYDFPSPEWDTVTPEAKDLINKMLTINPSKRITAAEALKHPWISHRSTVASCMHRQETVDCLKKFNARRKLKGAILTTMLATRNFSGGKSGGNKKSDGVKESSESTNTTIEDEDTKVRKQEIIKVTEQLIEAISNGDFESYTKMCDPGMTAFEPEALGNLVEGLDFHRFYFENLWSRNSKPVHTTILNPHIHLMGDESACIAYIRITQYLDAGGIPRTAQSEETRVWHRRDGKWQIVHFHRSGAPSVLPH
Observed: enzyme activity
Action: inhibitor
Concentration: 10 µM
Measurement: inhibition
SMILES = C=CCc1ccc(O)c(-c2cc(CC=C)ccc2O)c1; value = 0%
SMILES = C=C(C)[C@@H]1CC[C@]2(C=O)CC[C@]3(C)[C@H](CC[C@@H]4[C@@]5(C)CC[C@H](O)C(C)(C)[C@@H]5CC[C@]43C)[C@@H]12; value = -2%
SMILES = C/C=C(/C)C(=O)O[C@H]1c2cc(OC)c(OC)c(OC)c2-c2c(cc(OC)c(OC)c2OC)C[C@H](C)[C@]1(C)O; value = 9%
SMILES = Oc1ccc2c(c1)OC[C@]1(O)Cc3cc(O)c(O)cc3[C@H]21; value = -10%
SMILES = OC[C@H]1O[C@@H](O[C@@H]2OC=C[C@H]3[C@H](O)[C@@H]4O[C@]4(CO)[C@@H]23)[C@H](O)[C@@H](O)[C@@H]1O; value = -39%
SMILES = O=C(O)C/C=C(\CC(=O)O)C(=O)O; value = 3%
SMILES = O=C(O)/C=C/c1ccc(O)c(O)c1; value = -1%
SMILES = COc1cc(-c2oc3cc(O)cc(O)c3c(=O)c2O[C@@H]2O[C@H](CO[C@@H]3O[C@@H](C)[C@H](O)[C@@H](O)[C@H]3O)[C@@H](O)[C@H](O)[C@H]2O)ccc1O; value = -108%
SMILES = CCCCCCCCCCCCCC(=O)OCC(O)CO (stereo not drawn); value = 3%
SMILES = CC(C)(Oc1ccc(C(=O)c2ccc(Cl)cc2)cc1)C(=O)O; value = 0.18% and 0%

Set 2
Target: Mitogen-activated protein kinase kinase kinase 11 (MAP3K11, Homo sapiens, UniProt Q16584)
UniProt Q16584, sequence (whole entry, looked up): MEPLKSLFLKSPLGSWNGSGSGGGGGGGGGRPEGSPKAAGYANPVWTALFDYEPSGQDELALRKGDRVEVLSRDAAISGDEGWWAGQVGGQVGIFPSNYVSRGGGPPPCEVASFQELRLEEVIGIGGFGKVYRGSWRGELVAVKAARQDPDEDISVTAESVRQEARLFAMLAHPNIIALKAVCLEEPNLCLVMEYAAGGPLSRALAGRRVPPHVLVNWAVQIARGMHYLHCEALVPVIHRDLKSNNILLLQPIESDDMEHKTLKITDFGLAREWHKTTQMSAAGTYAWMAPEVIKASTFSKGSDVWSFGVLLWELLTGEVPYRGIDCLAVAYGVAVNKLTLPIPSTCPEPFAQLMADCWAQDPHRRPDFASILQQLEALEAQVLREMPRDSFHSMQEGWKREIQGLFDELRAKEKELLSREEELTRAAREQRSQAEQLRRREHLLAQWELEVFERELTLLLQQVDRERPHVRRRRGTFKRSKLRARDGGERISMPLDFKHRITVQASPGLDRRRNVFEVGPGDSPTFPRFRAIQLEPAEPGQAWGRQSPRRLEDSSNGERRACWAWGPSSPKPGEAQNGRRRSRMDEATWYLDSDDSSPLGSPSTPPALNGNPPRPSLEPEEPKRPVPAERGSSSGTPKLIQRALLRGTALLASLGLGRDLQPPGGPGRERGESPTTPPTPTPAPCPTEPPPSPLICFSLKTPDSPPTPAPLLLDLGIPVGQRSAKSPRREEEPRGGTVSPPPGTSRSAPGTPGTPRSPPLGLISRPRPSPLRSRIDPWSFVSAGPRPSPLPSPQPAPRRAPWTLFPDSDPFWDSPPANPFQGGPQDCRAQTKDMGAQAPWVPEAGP
Observed: enzyme activity
Action: inhibitor
Concentration: 0.5 µM
Relative to: control
Measurement: remaining activity
SMILES = c1cc(-c2cnn3cc(-c4ccc(OCCN5CCCCC5)cc4)cnc23)ccn1; value = 57.5%
SMILES = Clc1ccc(Nc2nnc(Cc3ccncc3)c3ccccc23)cc1; value = 106%
SMILES = N#CC(c1ccnc(NCCc2cccnc2)n1)c1nc2ccccc2s1 (stereo not drawn); value = 72.2%
SMILES = O=C1c2ccccc2-c2nc3nnnn3nc21; value = 69%
SMILES = NC(=O)c1ccc(-c2nc(-c3ccc4c(c3)OCCO4)c(-c3ccccn3)[nH]2)cc1; value = 96%
SMILES = O=Nc1c(-c2c(O)[nH]c3ccccc23)[nH]c2ccccc12; value = 17.3%
SMILES = O=c1c(-c2ccc(F)cc2)c(-c2ccncc2)[nH]n1-c1ccc(Cl)cc1; value = 98%
SMILES = CC(C)N(CCC(=O)c1ccc2ccccc2c1)Cc1ccccc1; value = 97%

Set 3
Structure (SMILES): CC(=O)C1=C(C)N(c2cccc(C(F)(F)F)c2)C(=O)N[C@@H]1c1ccc(C#N)nc1
Observed: binding
Method: radioligand binding
Concentration: 10 µM
Measurement: inhibition
target = Muscarinic acetylcholine receptor M4 (CHRM4, Homo sapiens, UniProt P08173); value = -6.72%
target = 5-hydroxytryptamine receptor 5A (HTR5A, Homo sapiens, UniProt P47898); value = 4.22%
target = Histamine H2 receptor (HRH2, Homo sapiens, UniProt P25021); value = 14.5%
target = Beta-3 adrenergic receptor (ADRB3, Homo sapiens, UniProt P13945); value = -0.551%
target = Muscarinic acetylcholine receptor M2 (CHRM2, Homo sapiens, UniProt P08172); value = -12.5%
target = Alpha-2B adrenergic receptor (ADRA2B, Homo sapiens, UniProt P18089); value = -1.73%
target = Alpha-2C adrenergic receptor (ADRA2C, Homo sapiens, UniProt P18825); value = 20.2%
target = Histamine H4 receptor (HRH4, Homo sapiens, UniProt Q9H3N8); value = 25.9%
target = D(1A) dopamine receptor (DRD1, Homo sapiens, UniProt P21728); value = -8.4%
target = 5-hydroxytryptamine receptor 3A (HTR3A, Homo sapiens, UniProt P46098); value = -7.63%
target = Alpha-1B adrenergic receptor (ADRA1B, Homo sapiens, UniProt P35368); value = -1.17%
target = 5-hydroxytryptamine receptor 7 (HTR7, Homo sapiens, UniProt P34969); value = 3.93%
target = Alpha-1D adrenergic receptor (ADRA1D, Homo sapiens, UniProt P25100); value = 3.11%
target = Histamine H1 receptor (HRH1, Homo sapiens, UniProt P35367); value = 34.1%

Further values, each from its own experiment
Compound = CC(=O)N[C@@H](Cc1c[nH]c2ccccc12)C(=O)N[C@@H](CCC(=O)C=[N+]=[N-])C(=O)OC(C)C; item = CD44 CD62L; cell line = tetramer+ CD8+ T cells; species = mouse; sample = draining lymph node; dose = dose not given; measurement = central memory cells; value = 10.5% and 15.1% and 14.2% and 15.9% and 13.2% and 9.13% and 7.69%

Excerpt of the above (set 3):
target = 5-hydroxytryptamine receptor 7 (HTR7, Homo sapiens, UniProt P34969); value = 3.93%
target = Alpha-1D adrenergic receptor (ADRA1D, Homo sapiens, UniProt P25100); value = 3.11%
